Published values collected from several papers.
Every numbered part comes from another study and shows a few of its results, in no order. Values joined by “and” are separate records of one study, mostly repeats; a detail may differ.
UniProt P35590, sequence (whole entry, looked up): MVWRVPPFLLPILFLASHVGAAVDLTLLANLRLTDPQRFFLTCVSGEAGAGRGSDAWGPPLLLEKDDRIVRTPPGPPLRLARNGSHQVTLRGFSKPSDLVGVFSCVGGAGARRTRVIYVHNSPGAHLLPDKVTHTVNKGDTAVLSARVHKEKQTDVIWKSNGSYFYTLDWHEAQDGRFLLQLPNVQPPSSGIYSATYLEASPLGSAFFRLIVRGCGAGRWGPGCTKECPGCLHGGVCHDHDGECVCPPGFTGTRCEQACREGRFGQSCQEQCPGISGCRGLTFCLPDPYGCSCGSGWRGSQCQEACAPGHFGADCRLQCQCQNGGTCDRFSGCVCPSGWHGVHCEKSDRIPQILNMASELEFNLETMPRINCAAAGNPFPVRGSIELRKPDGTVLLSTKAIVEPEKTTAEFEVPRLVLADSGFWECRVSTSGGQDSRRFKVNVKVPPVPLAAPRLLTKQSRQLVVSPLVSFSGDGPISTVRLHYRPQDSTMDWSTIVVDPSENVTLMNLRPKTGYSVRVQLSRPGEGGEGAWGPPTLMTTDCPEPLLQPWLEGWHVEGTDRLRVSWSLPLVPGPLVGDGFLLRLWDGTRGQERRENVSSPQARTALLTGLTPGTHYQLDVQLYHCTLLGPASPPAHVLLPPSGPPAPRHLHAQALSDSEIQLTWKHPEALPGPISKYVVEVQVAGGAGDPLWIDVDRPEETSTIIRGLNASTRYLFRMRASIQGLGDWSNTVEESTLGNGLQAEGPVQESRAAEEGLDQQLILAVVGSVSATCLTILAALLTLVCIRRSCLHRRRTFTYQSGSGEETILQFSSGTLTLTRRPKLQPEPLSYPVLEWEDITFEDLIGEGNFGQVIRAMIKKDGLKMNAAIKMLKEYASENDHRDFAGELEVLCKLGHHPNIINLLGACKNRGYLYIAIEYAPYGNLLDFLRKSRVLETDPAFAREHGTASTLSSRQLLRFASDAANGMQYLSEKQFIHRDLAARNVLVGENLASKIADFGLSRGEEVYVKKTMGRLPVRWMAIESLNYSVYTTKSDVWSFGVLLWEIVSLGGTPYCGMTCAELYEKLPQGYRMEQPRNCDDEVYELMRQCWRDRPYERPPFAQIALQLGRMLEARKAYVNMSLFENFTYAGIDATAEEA
UniProt Q02779, sequence (whole entry, looked up): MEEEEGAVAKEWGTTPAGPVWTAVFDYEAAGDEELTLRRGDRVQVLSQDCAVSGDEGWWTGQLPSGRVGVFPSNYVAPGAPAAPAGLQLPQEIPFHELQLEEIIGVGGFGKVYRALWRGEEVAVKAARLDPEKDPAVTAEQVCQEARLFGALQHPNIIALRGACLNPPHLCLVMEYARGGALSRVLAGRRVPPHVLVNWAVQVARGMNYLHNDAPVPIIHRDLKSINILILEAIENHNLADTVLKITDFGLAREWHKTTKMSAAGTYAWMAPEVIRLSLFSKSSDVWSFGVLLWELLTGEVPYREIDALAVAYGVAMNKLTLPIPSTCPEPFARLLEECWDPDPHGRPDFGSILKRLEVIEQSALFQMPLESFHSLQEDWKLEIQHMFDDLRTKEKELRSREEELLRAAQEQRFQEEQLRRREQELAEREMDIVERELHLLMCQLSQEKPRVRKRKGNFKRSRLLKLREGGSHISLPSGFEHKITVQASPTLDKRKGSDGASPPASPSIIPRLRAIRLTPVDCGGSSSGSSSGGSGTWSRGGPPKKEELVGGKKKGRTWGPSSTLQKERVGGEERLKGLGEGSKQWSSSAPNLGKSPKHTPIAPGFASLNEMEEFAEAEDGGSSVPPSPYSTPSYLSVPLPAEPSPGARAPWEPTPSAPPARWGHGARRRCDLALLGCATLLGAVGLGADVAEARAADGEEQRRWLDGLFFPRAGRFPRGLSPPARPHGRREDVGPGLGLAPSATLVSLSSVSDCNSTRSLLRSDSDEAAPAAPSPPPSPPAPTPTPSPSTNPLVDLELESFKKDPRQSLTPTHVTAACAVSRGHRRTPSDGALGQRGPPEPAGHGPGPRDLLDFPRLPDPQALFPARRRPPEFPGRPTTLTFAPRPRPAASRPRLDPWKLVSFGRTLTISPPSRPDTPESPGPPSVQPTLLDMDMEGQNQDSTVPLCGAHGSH
UniProt P32298, sequence (whole entry, looked up): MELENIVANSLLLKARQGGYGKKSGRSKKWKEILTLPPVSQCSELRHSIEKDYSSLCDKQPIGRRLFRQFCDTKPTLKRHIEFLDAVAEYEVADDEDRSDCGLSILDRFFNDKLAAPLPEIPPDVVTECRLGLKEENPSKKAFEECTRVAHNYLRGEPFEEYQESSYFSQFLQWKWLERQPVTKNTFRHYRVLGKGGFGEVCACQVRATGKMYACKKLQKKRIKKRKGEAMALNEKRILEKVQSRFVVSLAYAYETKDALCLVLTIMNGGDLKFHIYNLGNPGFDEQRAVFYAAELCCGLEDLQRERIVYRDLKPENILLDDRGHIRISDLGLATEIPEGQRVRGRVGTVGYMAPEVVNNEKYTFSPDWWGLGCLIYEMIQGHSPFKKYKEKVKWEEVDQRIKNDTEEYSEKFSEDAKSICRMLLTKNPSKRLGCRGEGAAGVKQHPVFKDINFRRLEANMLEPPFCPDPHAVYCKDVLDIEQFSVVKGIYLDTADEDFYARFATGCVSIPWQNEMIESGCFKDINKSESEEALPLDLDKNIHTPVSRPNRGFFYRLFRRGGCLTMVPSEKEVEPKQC
UniProt Q04912, sequence (whole entry, looked up): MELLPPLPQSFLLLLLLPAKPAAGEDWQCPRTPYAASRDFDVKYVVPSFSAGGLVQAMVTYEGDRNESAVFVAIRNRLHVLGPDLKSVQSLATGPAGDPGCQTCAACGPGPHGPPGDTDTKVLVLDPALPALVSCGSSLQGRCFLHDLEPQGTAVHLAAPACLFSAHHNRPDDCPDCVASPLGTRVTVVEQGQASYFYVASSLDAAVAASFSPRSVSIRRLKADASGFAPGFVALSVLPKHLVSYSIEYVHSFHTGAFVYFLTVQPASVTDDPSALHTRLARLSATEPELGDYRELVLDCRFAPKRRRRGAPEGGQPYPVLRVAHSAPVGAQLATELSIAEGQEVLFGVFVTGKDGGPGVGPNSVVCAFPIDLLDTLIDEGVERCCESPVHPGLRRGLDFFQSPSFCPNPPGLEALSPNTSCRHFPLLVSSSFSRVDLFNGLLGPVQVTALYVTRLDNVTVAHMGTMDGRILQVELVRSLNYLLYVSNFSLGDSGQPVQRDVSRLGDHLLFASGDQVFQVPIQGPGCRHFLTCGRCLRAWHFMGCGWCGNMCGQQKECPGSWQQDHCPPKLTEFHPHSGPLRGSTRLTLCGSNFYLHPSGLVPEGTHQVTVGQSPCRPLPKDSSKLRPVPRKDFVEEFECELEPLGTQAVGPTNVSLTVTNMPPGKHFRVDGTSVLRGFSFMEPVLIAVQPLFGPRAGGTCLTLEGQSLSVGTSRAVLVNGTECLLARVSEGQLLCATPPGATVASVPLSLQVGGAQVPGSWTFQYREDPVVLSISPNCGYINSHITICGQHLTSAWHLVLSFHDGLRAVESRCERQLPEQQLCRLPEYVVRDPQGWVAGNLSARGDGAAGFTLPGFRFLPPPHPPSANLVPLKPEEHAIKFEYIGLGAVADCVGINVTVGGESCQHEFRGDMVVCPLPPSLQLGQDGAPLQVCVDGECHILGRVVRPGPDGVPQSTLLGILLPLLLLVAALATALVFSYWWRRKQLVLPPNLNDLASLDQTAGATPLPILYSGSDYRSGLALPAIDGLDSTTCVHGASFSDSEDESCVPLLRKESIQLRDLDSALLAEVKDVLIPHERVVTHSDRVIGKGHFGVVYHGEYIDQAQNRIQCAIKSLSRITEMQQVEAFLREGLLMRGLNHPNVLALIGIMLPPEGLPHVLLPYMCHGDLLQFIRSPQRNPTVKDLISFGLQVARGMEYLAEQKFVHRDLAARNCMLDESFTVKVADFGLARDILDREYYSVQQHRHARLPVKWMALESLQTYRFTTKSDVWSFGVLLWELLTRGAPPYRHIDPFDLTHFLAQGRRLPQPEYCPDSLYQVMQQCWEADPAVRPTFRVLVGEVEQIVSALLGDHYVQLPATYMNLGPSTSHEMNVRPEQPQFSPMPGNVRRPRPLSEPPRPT
UniProt Q96D53, sequence (whole entry, looked up): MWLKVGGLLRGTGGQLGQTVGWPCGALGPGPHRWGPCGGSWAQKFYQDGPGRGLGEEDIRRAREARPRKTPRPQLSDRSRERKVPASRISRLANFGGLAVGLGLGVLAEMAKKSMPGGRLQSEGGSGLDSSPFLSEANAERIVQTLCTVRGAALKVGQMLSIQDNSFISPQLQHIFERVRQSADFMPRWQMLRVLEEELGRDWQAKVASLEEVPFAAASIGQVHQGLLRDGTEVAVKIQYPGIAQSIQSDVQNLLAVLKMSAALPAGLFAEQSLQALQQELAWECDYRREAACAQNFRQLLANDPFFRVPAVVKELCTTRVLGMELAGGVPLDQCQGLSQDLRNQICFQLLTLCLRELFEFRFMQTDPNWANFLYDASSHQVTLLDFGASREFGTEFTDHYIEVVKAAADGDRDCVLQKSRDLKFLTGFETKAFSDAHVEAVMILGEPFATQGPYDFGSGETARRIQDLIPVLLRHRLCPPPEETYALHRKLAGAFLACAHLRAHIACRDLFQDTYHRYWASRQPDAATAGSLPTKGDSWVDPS

Block 1
Target: Calcium/calmodulin-dependent protein kinase type II subunit alpha (CAMK2A, Homo sapiens, UniProt Q9UQM7)
UniProt Q9UQM7, sequence (whole entry, looked up): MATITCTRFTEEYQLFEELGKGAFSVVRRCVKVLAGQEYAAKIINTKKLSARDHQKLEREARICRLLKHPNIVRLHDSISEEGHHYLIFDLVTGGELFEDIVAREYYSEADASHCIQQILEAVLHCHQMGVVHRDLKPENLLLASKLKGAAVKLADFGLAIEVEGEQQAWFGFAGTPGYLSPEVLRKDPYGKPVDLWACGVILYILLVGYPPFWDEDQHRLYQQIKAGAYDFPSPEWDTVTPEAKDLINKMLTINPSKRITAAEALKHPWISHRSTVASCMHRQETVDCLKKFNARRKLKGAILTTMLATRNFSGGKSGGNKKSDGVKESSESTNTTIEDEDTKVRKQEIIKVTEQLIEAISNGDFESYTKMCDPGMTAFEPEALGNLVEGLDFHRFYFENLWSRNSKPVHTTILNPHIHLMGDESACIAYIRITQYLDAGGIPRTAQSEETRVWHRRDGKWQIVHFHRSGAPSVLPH
Read-out: enzyme activity
Mode: inhibitor
Tested at: 10 µM
`COc1cc([C@@H]2c3cc4c(cc3[C@@H](O[C@@H]3O[C@@H]5CO[C@@H](c6cccs6)O[C@H]5[C@H](O)[C@H]3O)[C@H]3COC(=O)[C@H]23)OCO4)cc(OC)c1O` has an inhibition of -17%.
The inhibition of `C[C@@H]1C(=O)O[C@H]2C[C@]34[C@@H]5OC(=O)[C@]3(O[C@@H]3OC(=O)[C@H](O)[C@@]34[C@H](C(C)(C)C)[C@H]5O)[C@]21O` is reported as -15%.
For `O=C1c2cccc(O)c2C(=O)c2c(O)cccc21`, the inhibition was 8%.
`COc1c(OC)c2occc2c2oc(=O)ccc12` gave an inhibition of -28%.
The inhibition of `C=CCN1C[C@H](C(=O)N(CCCN(C)C)C(=O)NCC)C[C@@H]2c3cccc4[nH]cc(c34)C[C@H]21` is reported as 0%.

Block 2
Compound: CC(C)(C)c1cnc(CSc2cnc(NC(=O)C3CCN(CCCCCCCCSc4cccc5c4C(=O)N(C4CCC(=O)NC4=O)C5=O)CC3)s2)o1 (stereo not drawn)
Cell line: HH
Technique: CCK-8
It gave 100% for viability (1 nM).
500 nM — viability: 0%.
50 nM — viability: 95% and 95.2%.
For 100 nM: viability read 76.9% and 81.2%.

Block 3
Species: human
Matrix: microsomes or S9
Tested at: 2 µM
Time: 0.5 h
`CNC(=O)CCC(=O)C1=C(NC)CC(C)(C)CC1=O` gave a remaining compound of 83.4%.
For `O=C(CCn1c2c(c3ccccc31)CCn1c-2nc2ccccc2c1=O)N1CCN(Cc2cccnc2)CC1`, the remaining compound was 3.2%.
With `CN1CCN(c2nc(O)c3c(-c4ccsc4)ccnc3n2)CC1` the remaining compound was 71.4%.
`COc1cc(=O)[nH]cc1C(=O)N(C)C1(Cc2ccccc2)CCCC1` gave a remaining compound of 12.2%.
The remaining compound of `Cc1ccc(C2(c3noc(Cn4ccnc4)n3)CCCC2)cc1` is reported as 62.7%.
`Cc1ccc(-c2sc3cc(Br)ccc3c2-c2ccc(C)cc2)cc1` gave a remaining compound of 73%.
For `CC(C)=CCO[C@H]1CCOC[C@H]1Nc1ncc(F)c(N2CCOCC2)n1`, the remaining compound was 1.21%.

Block 4
Structure (SMILES): CC1=C(C#N)C(c2ccc3c(c2)c(NC(=O)c2ccccc2C)nn3C)C(C#N)=C(C)N1
Read-out: cell-free assay
Technique: competition with immobilised ligand
Tested at: 1 µM
The remaining binding was 93% (FGFR3 (Homo sapiens, UniProt P22607, G697C)).
For NTRK1 (Homo sapiens, UniProt P04629): remaining binding read 77%.
ULK3 (Homo sapiens, UniProt Q6PHR2) — remaining binding: 84%.
It gave 100% for remaining binding (GRK4 (Homo sapiens, UniProt P32298)).
The remaining binding was 91% (MAP2K3 (Homo sapiens, UniProt P46734)).
TIE1 (Homo sapiens, UniProt P35590) — remaining binding: 94%.
The remaining binding was 92% (MARK3 (Homo sapiens, UniProt P27448)).
It gave 100% for remaining binding (Ribosomal protein S6 kinase alpha-1, N-terminal kinase domain (RPS6KA1, Homo sapiens, UniProt Q15418)).
MTOR (Homo sapiens, UniProt P42345) — remaining binding: 75%.
RPS6KB1 (Homo sapiens, UniProt P23443) — remaining binding: 74%.
MAP3K10 (Homo sapiens, UniProt Q02779) — remaining binding: 69%.
The remaining binding was 97% (ITK (Homo sapiens, UniProt Q08881)).
It gave 94% for remaining binding (PRKCH (Homo sapiens, UniProt P24723)).
The remaining binding was 84% (EGFR (Homo sapiens, UniProt P00533)).
For IRAK1 (Homo sapiens, UniProt P51617): remaining binding read 75%.
PDPK1 (Homo sapiens, UniProt O15530) — remaining binding: 77%.
MST1R (Homo sapiens, UniProt Q04912) — remaining binding: 95%.
It gave 100% for remaining binding (COQ8B (Homo sapiens, UniProt Q96D53)).
NIM1K (Homo sapiens, UniProt Q8IY84) — remaining binding: 86%.
It gave 94% for remaining binding (CLK3 (Homo sapiens, UniProt P49761)).

Block 5
Target: Diamine acetyltransferase 1 (Homo sapiens, UniProt P21673)
Mode: inhibitor
Tested at: 10 µM
Baseline: control
Residues (P21673 1-171): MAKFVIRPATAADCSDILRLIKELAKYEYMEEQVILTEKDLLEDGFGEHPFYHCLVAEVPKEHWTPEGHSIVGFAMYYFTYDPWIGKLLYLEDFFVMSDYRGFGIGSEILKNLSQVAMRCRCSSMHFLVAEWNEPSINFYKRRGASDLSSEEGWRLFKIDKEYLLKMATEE
`O=C(O)CC(O)(CC(=O)O)C(=O)O` has a remaining activity of 87.5%.
`O=c1c(O)c(-c2ccc(O)cc2O)oc2cc(O)cc(O)c12` gave a remaining activity of 82.7%.
With `O=C(O)[C@H]1O[C@@H](Oc2cc(O)c3c(=O)cc(-c4ccccc4)oc3c2)[C@H](O)[C@@H](O)[C@@H]1O` the remaining activity was 96.2%.
`OC[C@@]1(O)OC[C@@H](O)[C@@H](O)[C@@H]1O` has a remaining activity of 104%.

Block 6
Cell line: A-375
Tested at: 100 µM
Time: 36 h
`CCCN(CCC)C(=O)C(CCC(=O)O)NC(=O)c1ccccc1` (stereo not drawn) gave a viability of 101%.
With `CN(Cc1ccc(C(C)(C)C)cc1)Cc1cccc2ccccc12` the viability was 24.4%.
The viability of `CC1=C(CC(=O)O)c2cc(F)ccc2/C1=C\c1ccc([S+](C)[O-])cc1` (stereo not drawn) is reported as 92.3%.
For `CC1(C)C[C@@H]1C(=O)N/C(=C\CCCCSC[C@H](N)C(=O)O)C(=O)O`, the viability was 108%.

Single results of other studies
For `CCCN1C(=O)[C@H](CC(C)C)NC(=O)[C@@H](N(C)C(=O)[C@H](CC2CCC2)NC(=O)[C@@H]2C[C@@H](F)CN2C(=O)[C@@](C)(O)C(F)(F)F)CCCCNC(=O)C2(CC2)NC(=O)[C@@H]1Cc1cc(Cl)ccc1Cl`, “cleaved caspase-3 positive cells” read 54.1% and 52.3% and 55.8% (immunohistochemistry; mice, NCI-H69 xenograft, tumour; intravenous, 100 mg/kg once daily, 18 h).

For quick reference, copied from above (block 3):
`CNC(=O)CCC(=O)C1=C(NC)CC(C)(C)CC1=O` gave a remaining compound of 83.4%.
For `O=C(CCn1c2c(c3ccccc31)CCn1c-2nc2ccccc2c1=O)N1CCN(Cc2cccnc2)CC1`, the remaining compound was 3.2%.
With `CN1CCN(c2nc(O)c3c(-c4ccsc4)ccnc3n2)CC1` the remaining compound was 71.4%.
`COc1cc(=O)[nH]cc1C(=O)N(C)C1(Cc2ccccc2)CCCC1` gave a remaining compound of 12.2%.
The remaining compound of `Cc1ccc(C2(c3noc(Cn4ccnc4)n3)CCCC2)cc1` is reported as 62.7%.
`Cc1ccc(-c2sc3cc(Br)ccc3c2-c2ccc(C)cc2)cc1` gave a remaining compound of 73%.
